Measurements of several laboratories.
Compare with care: the assays were run in different laboratories. Numbers after ± are the reported error.
Action: agonist
CNR1: Cannabinoid receptor 1 (CNR1, Homo sapiens, UniProt P21554)
Sequence of UniProt P21554 (whole entry, unmodified, looked up): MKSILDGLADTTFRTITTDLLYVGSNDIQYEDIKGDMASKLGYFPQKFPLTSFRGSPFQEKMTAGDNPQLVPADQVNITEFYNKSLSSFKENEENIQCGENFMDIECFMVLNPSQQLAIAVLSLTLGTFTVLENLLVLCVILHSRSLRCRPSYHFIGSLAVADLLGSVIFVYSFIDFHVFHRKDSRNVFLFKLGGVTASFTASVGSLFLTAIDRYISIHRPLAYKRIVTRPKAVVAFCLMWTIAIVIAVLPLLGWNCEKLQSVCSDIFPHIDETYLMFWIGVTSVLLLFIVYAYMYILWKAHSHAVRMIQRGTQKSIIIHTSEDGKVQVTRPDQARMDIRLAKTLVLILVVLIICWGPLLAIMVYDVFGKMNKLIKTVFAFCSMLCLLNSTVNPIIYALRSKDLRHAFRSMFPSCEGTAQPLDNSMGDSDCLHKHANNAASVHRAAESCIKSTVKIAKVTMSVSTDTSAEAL
CNR1 F170A: Cannabinoid receptor 1 (CNR1, Homo sapiens, UniProt P21554, F170A)

| SMILES | target | test | test system | EC50 |
| --- | --- | --- | --- | --- |
| CCCCCn1ccc(C(=O)NC(C)(C)c2ccccc2Cl)n1 | CNR1 | calcium signal |  | 23.2 nM |
| Cn1cc(C(C[N+](=O)[O-])c2c(-c3ccccc3)[nH]c3ccccc23)cn1 (stereo not shown) | CNR1 | β-arrestin recruitment, luciferase |  | 2830 nM |
| CCCCCn1cc(C(=O)c2cccc3c2CC(C)(C)C3)c2ccccc21 | CNR1 F170A | cAMP, BRET |  | 219 nM |
| CC(=O)Nc1ccc(C(C)(C)NC(=O)c2ccn(Cc3ccc(F)cc3)n2)c(Cl)c1 | CNR1 | calcium signal |  | 481 nM |
| O=[N+]([O-])CC(c1ccco1)c1c(-c2ccccc2)[nH]c2ccccc12 (stereo not shown) | Cannabinoid receptor 1, with GoB (CNR1, Homo sapiens, UniProt P21554) | GoB dissociation, BRET | HEK293 | 2260 ± 40 nM |
| CCCCCn1cc(C(=O)c2cccc3ccccc23)c2ccccc21 | CNR1 F170A | G protein activation, BRET |  | 1550 nM |
| COC(=O)[C@@H](NC(=O)c1nn(Cc2ccc(F)cc2)c2cc(OCCCCNC(N)=O)ccc12)C(C)(C)C | CNR1 | β-arrestin recruitment |  | 4.2 nM |
| CCCCCn1ccc(C(=O)NC(C)(C)c2ccc(NC(C)=O)cc2)n1 | CNR1 | calcium signal |  | 112 nM |
| Cc1ccc2c(C(C[N+](=O)[O-])c3cccs3)c(-c3ccccc3)[nH]c2c1 (stereo not shown) | CNR1 (Homo sapiens, UniProt P21554, V249A) | G protein activation, BRET |  | 140 nM |
| CCCCCn1cc(C(=O)c2ccc3ccccc3c2)c2ccccc21 | CNR1 | cAMP |  | 43.7 nM |

Some of these lines once more:
| SMILES | target | test | test system | EC50 |
| --- | --- | --- | --- | --- |
| CCCCCn1cc(C(=O)c2cccc3ccccc23)c2ccccc21 | CNR1 F170A | G protein activation, BRET |  | 1550 nM |
